Assay results pooled from the literature.
Each line is one published result; not all experiments were run side by side. Values joined by “and” are separate records of one study, mostly repeats; a detail may differ.
TEK: Angiopoietin-1 receptor (TEK, Homo sapiens, UniProt Q02763)

Compound | target | test | test system | setting | how to read | measurement | value
Cc1cccc(O[C@H]2CCC[C@@H](C(C)CNCc3ccncc3)C2)c1 (relative stereo) | TEK | cell-free assay |  | 1 µM |  | inhibition | 9%
CCN1CCN(Cc2ccc(NC(=O)c3ccc(C)c(NC(=O)c4cncc(-c5cnn(C)c5)c4)c3)cc2C(F)(F)F)CC1 | TEK | binding, competition with immobilised ligand |  | 1 µM |  | remaining binding | 34%
COCC12C(=O)NC3C4(C(OC)CC1O)C1CC5(O)C(OC)C(O)C(OC(C)=O)(C1C5OC(=O)c1ccccc1)C3(O)C(OC)C24 (stereo not shown) | TEK | kinase activity, inhibitor, ProQinase kinase profiling |  | 25 µM | relative to: control | remaining activity | 108% and 101%
C=CC(=O)Nc1cccc(-c2cnc3[nH]cc(C(=O)NC(C)(C)C)c3n2)c1 | TEK | kinase activity |  | 0.1 µM |  | inhibition | -1% and 1%
C=CC(=O)N1CCc2ccc(-n3c(=O)ccc4cnc5ccc(-c6cnn(C)c6)cc5c43)cc21 | TEK | KINOMEscan |  | 1 µM | relative to: DMSO control | remaining binding | 73%
CNC1C[S+]2CC[S+]3CC[S+](C1)[Ru-4]321([N]=C=S)[n]2c3ccc(OC)cc3c3c4c(c5cc(F)c[n+]1c5c32)C(=O)NC4=O (stereo not shown) | TEK | KinomeScan |  | 0.1 µM | relative to: untreated | remaining binding | 88%
NC(=O)C[C@H]1CCc2sc3ncnc(O[C@H]4CC[C@H](N5CCOCC5)CC4)c3c21 | TEK | enzyme activity, inhibitor |  | 10 µM |  | inhibition | 2%
COc1ccc(NC(=O)Nc2ccc3c(c2)C(=O)N(C(C)CO)CC(C)C(CN(C)Cc2ccc4c(c2)OCO4)O3)cc1 (stereo not shown) | TEK (Homo sapiens, UniProt Q02763, Y897S) | kinase activity |  | 0.03 µM | relative to: control | remaining activity | 83%
O=C(Nc1ccc(Oc2ncnc3[nH]cc(-c4ccccc4)c23)c(F)c1)c1c2n(n(-c3cc(F)ccc3F)c1=O)CCCC2 | TEK | enzyme activity, inhibitor |  | 0.5 µM |  | inhibition | 79%
O=C=[N][Ru-4]123([n]4c5ccc(O)cc5c5c6c(c7cc(F)c[n+]1c7c54)C(=O)NC6=O)[S+]1CC[S+]2CC[S+]3CC1 (stereo not shown) | TEK (Homo sapiens, UniProt Q02763, R849W) | enzyme activity |  | 100 nM, human enzyme, with: 10 µM ATP | relative to: untreated | remaining activity | 98%
CN1CCN(Cc2ccc(-c3ccc(CO[C@H]4CCC[C@@H]4NC(=O)c4cc(-c5cnn(C)c5)cnc4N)cc3)cc2)CC1 | TEK | enzyme activity, inhibitor |  | 0.1 µM |  | inhibition | 9%
COc1cc(Nc2nc(C)cc(-c3cnn4nc(OC)ccc34)n2)cc(C(F)(F)F)c1 | TEK | binding, competition with immobilised ligand |  | 1 µM |  | remaining binding | 100%
Nc1ncc2c(n1)-c1c([nH]c3ccc(C4=CCOCC4)cc13)CCC2 | TEK | binding, competition with immobilised ligand |  | 1 µM |  | remaining binding | 100%
CN1CCN(Cc2ccc(NC(=O)c3cccc(C#Cc4cnc(N)c5ncccc45)c3)cc2C(F)(F)F)CC1 | TEK | cell-free assay, competition with immobilised ligand |  | 50 nM |  | remaining binding | 0.9%
Cc1ccc(C(=O)Nc2ccc(CN3CCN(C)CC3)c(C(F)(F)F)c2)cc1C#Cc1cnc2cccnn12 | TEK | NanoBRET target engagement | human cells |  |  | upper asymptote | 96.8
Nc1ncc(-c2cc(-c3cnn(CC(F)(F)F)c3)ncc2F)nc1C(=O)NC1CNCC(F)C1 (stereo not shown) | TEK | enzyme activity |  | 1 µM | relative to: DMSO control | remaining activity | 107%
O=C(Cc1ccc(OCc2ccccc2)cc1)NC1(C(=O)O)CCN(C(=O)c2ccc(-c3cccc(Cl)c3)cc2)CC1 | TEK | enzyme activity, inhibitor |  | 10 µM |  | activity vs control | 167%
CNC(=O)C[C@H](Cc1ccc(C#N)cc1)NC(=O)c1cc(-c2ccc(CN[C@H](C)c3ccc(C)cc3)o2)ccc1Cl | TEK | enzyme activity, inhibitor |  | 1 µM |  | activity vs control | 117%
COc1c(Cl)cccc1Nc1c(-c2ccncc2C#C[C@@]2(C)CCCN2C(=O)/C=C/CN(C)C)[nH]c2c1C(=O)NCC2 | TEK | cell-free assay, competition with immobilised ligand |  | 3 µM |  | remaining binding | 97%
CC(C)=CC1OC(C)(C)C2C=C3C(=O)C(Cl)=CC(O)C3C3C(O)C4OC4C(=O)C132 (stereo not shown) | TEK | cell-free assay, competition with immobilised ligand |  | 10 µM |  | remaining binding | 100%
COc1cc(-n2cc3cc(F)cc(C(N)=O)c3n2)cc(Cl)c1C1CC(O)(CCO)Cc2ccccc21 (stereo not shown) | TEK | enzyme activity, inhibitor |  | 10 µM |  | inhibition | 0.57%
Cc1cnc2nc1Nc1cccc(c1)COC/C=C/COCc1cc(ccc1OCCN1CCOCC1)N2 | TEK | binding, competition with immobilised ligand |  | 0.1 µM |  | remaining binding | 100%

Some of these lines once more:
Compound | target | test | test system | setting | how to read | measurement | value
COc1c(Cl)cccc1Nc1c(-c2ccncc2C#C[C@@]2(C)CCCN2C(=O)/C=C/CN(C)C)[nH]c2c1C(=O)NCC2 | TEK | cell-free assay, competition with immobilised ligand |  | 3 µM |  | remaining binding | 97%
CC(C)=CC1OC(C)(C)C2C=C3C(=O)C(Cl)=CC(O)C3C3C(O)C4OC4C(=O)C132 (stereo not shown) | TEK | cell-free assay, competition with immobilised ligand |  | 10 µM |  | remaining binding | 100%
COc1cc(-n2cc3cc(F)cc(C(N)=O)c3n2)cc(Cl)c1C1CC(O)(CCO)Cc2ccccc21 (stereo not shown) | TEK | enzyme activity, inhibitor |  | 10 µM |  | inhibition | 0.57%
